Measurements from different studies.
Numbered parts are unrelated; each lists some results of a single study. Positions count from the first letter of the parent shown.

Block 1 — method: competition protein-binding microarray; form: double-stranded DNA, one strand shown; matrix: in vitro; tested at: 2 µM; added: Cbf1 competitor, 0.05 µM; direction: higher = stronger binding
Target: Phosphate system positive regulatory protein PHO4, full length, GST-tagged (PHO4, Saccharomyces cerevisiae, UniProt P07270, residues 1-312)
Setting: whole 60-bp probe, lowest competitor level
Target sequence (chain): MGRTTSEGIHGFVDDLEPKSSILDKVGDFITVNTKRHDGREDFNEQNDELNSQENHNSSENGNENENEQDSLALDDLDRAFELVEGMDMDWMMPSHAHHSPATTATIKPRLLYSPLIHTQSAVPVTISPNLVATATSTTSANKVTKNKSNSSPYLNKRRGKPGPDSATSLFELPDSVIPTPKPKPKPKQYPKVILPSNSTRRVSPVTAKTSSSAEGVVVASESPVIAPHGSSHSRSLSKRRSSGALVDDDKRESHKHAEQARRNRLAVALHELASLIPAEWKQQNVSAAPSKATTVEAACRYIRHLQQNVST
| Strand | fluorescence intensity [a.u.] |
| --- | --- |
| CTTCTGTAAATTTGCGGGGTGGGTGGACGCGCCCCGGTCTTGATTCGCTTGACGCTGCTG | 5590 |
| GGTTCAAAATCCCGTCACGATGAAATAGAAAATGAAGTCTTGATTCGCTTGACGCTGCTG | 5960 |
| GCCCATCGAAATTAGCACGATAGAGGAAGAGCAATCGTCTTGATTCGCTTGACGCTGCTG | 5800 |
| TGAAAGAAGAACCATCACGTGGAACATGCTTTTTAGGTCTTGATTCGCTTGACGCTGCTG | 14100 |
| AAAGCGGTAATTTGACCAGTGGGTGCAGATATCTATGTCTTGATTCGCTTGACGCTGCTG | 3790 |
| TGCGCAACAACTTTTCACGTGAATTTATGTCTAGAAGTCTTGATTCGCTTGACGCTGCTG | 8340 |
| GTCTTGTCTCATTTTCACGTGTACTTCCCCACTTCAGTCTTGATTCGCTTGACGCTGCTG | 11700 |
| TCCTCACAGATCTGCCACGTGGCTGTGCGGCTGACCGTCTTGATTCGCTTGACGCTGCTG | 17100 |
| CTAACGAAGGTTTTTCACGTGCTATACAAGCCAAGTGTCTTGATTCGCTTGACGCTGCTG | 15700 |
| GTCTATAAATGCTGGCACGTGCGATCATCGCGGCGGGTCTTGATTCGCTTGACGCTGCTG | 19100 |
| AAATTACTAAGTTGTTAAGTGGGTGACGCCGTATGAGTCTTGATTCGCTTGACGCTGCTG | 3670 |
| TGCGCAACAACTTGTCACTAAACTTTATGTCTAGAAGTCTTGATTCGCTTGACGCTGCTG | 3060 |
| CGGGGTTAAGTTTGTTATGTGGGTGGCTTGCAGCAGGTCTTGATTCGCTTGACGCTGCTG | 5040 |
| CGGTAACATTTGAAACATGTGCCAGACTCCGAATGGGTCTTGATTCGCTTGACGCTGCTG | 11100 |
| TGTCCCAATCTAACACACATGAGTCGTCGAACGCCAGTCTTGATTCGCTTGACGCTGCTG | 6000 |
| CTATTGGTATATGTGTCCGTGACAAAGTAGTTAGTGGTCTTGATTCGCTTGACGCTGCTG | 5740 |
| CTGCGCCCGCCGTAGACCGTGACAAGGAAGCTCACCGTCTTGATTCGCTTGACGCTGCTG | 5850 |
| CTTTTAACTTGCCTGCATGTGTGGAGTTACAAATTAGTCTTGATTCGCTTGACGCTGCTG | 8020 |
| AAAAAAAACCGCCATCACGTAACCGTAGCTTCCACTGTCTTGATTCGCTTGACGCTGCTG | 4480 |

Block 2 — method: RNA Bind-n-Seq; form: RNA; matrix: in vitro; tested at: 365 nM; baseline: no-protein control; direction: higher = stronger binding
Target: RNA binding protein fox-1 homolog 2, RRM domain, GST-SBP tag (RBFOX2, Homo sapiens, UniProt O43251-10, residues 100-194)
Setting: natural RNA segment, single round, ends assumed
Construct (chain): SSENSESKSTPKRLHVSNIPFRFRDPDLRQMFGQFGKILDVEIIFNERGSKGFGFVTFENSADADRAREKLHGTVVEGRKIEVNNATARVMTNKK
| Strand | RBNS enrichment (R) |
| --- | --- |
| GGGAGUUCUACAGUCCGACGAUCGGGAAAUCUCAGAACUGGUUUAUUUGGUGUCGUGGAACCUCUUACCGCUUUCAAUACACAAUUAGUAAUCAACUGUUUUGUAUACUUGUUUUCAGUUUUCAUUUCGACAAUGGAAUUCUCGGGUGCCAA | 0.352 |
| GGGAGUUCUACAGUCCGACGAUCGGUCUGCGGUAGAGAUGGUUUCUGGCAGCCGCAGCAGCCCCAGGUACCUAGCCUCCCCUGGCUGCUCUCCUGUCAGUGAGAUGCAGGAGCCGCCCUCUGCUCUCAGUGGUUGGAAUUCUCGGGUGCCAA | 0.597 |
| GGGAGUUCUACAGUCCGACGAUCUAGCCAACAUUCCUGCCCUAACCCUGCCCAUCACCAGCUGGCUGGGCUGGUAUUUAUCUGCAAGGUUGAAGUCACUGGGAUUCUUUUCCUUUCACCUAGAUAGUCCUUGGUGGAAUUCUCGGGUGCCAA | 0.383 |
| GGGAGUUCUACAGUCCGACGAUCGCCUGGGUGCCUGGAUGCAUGGAUGCCUGGGUGCCCGGAUGCAUGGAUGCAUGGGUGCCCGGAUGCAUGGGUGCAUGCUGGUCUCAAGUCACAAGCUGCCUCUAUUUCAGUGGAAUUCUCGGGUGCCAA | 2.98 |
| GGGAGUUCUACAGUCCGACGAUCGCGUCCGUCCUCGAGCCAGGCGGGAGGAGGGAGUGGAGAGACUGACUGGCCGUGAUGGGAAUGACAGUGAGAAGGUCCGCCUGUGCGCGUGGAACACUGUGGACGCUCGAUGGAAUUCUCGGGUGCCAA | 0.58 |
| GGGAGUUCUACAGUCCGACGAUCUGCCCCCACUCACCAAGGCCUCGCUCGUCCCUCUCGUCUGACAUGUCUGUGUGCACCCCCCUCCUCUCCACCCUACCUUCCAUCAACCAGGGCAGAUCCACCGUGCCCUGUGGAAUUCUCGGGUGCCAA | 1.34 |
| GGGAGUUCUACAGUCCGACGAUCCUUGUAACAAUUAAAAUUGCUUUUCUUCCAUGUUUCUCUUGGCAGAGAGAAAUGCCAUCAUGCUUACUGCUCUUUUGGAUUCUUCAUGCAGUGGCUUCCCAUUUGCUCUGUGGAAUUCUCGGGUGCCAA | 0.883 |
| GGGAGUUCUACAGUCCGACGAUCAGAUCUGGAAGUAAGCAAAUGUGAAAAUUCCUUUUGGAACCUGACAGAUGCAGCUAAACUAAACAGUGCUUUUCAGACUAGUGUGUGUGUGUGUGUGUGUUCACACAUGUUGGAAUUCUCGGGUGCCAA | 0.581 |

Block 3 — target: JDP2, bZIP domain (human); method: DHFR protein complementation; matrix: yeast; baseline: wild-type JUN-FOS pair; direction: higher = stronger binding
Setting: single substitutions, most at no-binding floor
Parent: JUN, bZIP domain (human); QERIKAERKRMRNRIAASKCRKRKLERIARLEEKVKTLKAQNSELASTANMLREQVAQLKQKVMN; partner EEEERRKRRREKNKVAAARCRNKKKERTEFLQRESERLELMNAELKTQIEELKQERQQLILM
| Change | binding fitness [natural log] |
| --- | --- |
| A49S | 0.163 |
| E54A | 0.195 |
| L31Q | 0.143 |
| K39V | 0.285 |
| L31F | 0.248 |
| L45K | -0.26 |
| A49M | 0.233 |
| M51L | 0.301 |
| T48R | 0.28 |
| Q41D | 0.226 |
| K34M | 0.249 |
| E33M | 0.239 |
| R30I | 0.256 |
| K34R | 0.36 |
| A46P | -0.836 |
| Q41S | -1.25 |
| K39M | 0.203 |
| A29P | 0.22 |
| V35F | 0.182 |
| L45N | -0.0886 |
| E33R | 0.242 |
| V35T | 0.179 |
| S47C | 0.29 |

Block 4 — method: protein-binding microarray; form: double-stranded DNA, one strand shown; matrix: in vitro; tested at: 250 nM; setting: 60-bp whole probe; added: salmon DNA 0.4 mg/ml; baseline: random background probes; direction: higher = stronger binding; all sequences stand within: GCCTAGCAC … GTCTTGATTCGCTTGACGCTGCTG
Target: Interferon regulatory factor 7, full length, phosphomimetic (IRF7, Homo sapiens, UniProt Q92985, residues 1-503, S101K/S471D/S472D/S475D/S476D/S477D/S483D/S484D/S487D)
Construct (chain): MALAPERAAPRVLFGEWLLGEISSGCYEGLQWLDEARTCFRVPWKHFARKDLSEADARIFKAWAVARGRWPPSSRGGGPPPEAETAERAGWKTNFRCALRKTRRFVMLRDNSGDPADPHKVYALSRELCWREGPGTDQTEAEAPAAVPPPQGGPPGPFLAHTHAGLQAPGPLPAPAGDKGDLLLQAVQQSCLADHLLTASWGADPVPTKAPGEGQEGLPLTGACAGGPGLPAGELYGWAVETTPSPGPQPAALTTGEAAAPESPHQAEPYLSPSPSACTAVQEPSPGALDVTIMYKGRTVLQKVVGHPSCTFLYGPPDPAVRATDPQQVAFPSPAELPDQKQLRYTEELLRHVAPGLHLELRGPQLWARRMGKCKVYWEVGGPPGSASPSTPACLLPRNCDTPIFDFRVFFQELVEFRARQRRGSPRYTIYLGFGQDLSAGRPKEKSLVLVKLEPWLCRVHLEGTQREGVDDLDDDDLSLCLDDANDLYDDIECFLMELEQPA
| Strand | log fluorescence |
| --- | --- |
| TTAGGTTTCCAACTGCTTTAGTGCTAG | 1.3 z-score |
| TTATGTCTCGGTATCGGTTAGTGCTAG | 2.16 z-score |
| GACGAACTGGGGTATCGAGGCGTGCTA | -0.63 z-score |
| TTAGGACTAGGGTTTCGGTTAGTGCTA | 5.88 z-score |
| GACGATTTCGGGTTTCGAGCCGTGCTA | 2.41 z-score |
| GACGGAGTGGGGACTGGGGACGTGCTA | -0.479 z-score |
| TTAGGTCTGGGTCTCGGTTAGTGCTAG | 0.681 z-score |
| TCACTTCTCTTTTGGCTACTGTGCTAG | 2.06 z-score |
| TCACCTCTCATTCCAATACTGTGCTAG | 0.549 z-score |
| GACGGTTTCGGTCTCGGGTCGTGCTAG | 8.73 z-score |
| TACGGTCTCCTTATCCTGACGTGCTAG | 0.477 z-score |
| TTAGAACTTAGTTTCGATTAGTGCTAG | 10.1 z-score |
| GACGGTATCCTTCTCCTGAGGTGCTAG | 0.051 z-score |
| GACGAACTGATTATCGAGACGTGCTAG | 0.0615 z-score |
| GACGGTATCGGCCTGGGGACGTGCTAG | -0.523 z-score |
| ATGGAAATCTCAATGGGTTAGTGCTAG | -0.622 z-score |
| TTTGGACACAGACACAGGCCGTGCTAG | -0.0603 z-score |
| TCAGGTTTCGGACTGGGTTAGTGCTAG | 4.28 z-score |
| TTAGAACTGGGGTACCGATTAGTGCTA | 0.186 z-score |
